Measurements gathered from unrelated publications.
Every numbered part comes from another study and shows a few of its results, in no order. Changes are numbered by the printed parent chain.

Block 1 — method: DHFR PCA, deep sequencing; sample: yeast; together with: (+)-ABA 17 µM; relative to: wild-type fitted maximum; direction: higher = stronger binding
Target: ABI1, truncated, D143A, DHFR fusion (Arabidopsis thaliana)
Notes: methotrexate growth selection, single substitutions
Parent: PYL1, truncated, DHFR fusion (Arabidopsis thaliana); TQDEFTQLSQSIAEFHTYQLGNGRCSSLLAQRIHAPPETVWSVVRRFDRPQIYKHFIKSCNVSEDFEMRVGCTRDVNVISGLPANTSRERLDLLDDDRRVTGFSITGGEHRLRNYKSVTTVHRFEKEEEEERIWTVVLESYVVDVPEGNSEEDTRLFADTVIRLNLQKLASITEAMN; partner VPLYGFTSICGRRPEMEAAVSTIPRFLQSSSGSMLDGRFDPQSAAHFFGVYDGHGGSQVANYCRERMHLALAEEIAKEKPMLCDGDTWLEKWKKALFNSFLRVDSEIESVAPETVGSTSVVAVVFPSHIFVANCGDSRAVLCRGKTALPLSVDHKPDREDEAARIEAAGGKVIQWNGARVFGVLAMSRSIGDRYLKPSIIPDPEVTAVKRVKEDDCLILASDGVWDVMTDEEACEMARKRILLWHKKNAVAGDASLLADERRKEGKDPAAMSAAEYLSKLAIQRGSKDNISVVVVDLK
Change | relative binding score [%]
Y141D | -11.5
V136K | 2.58
G102T | -1.89
D65Y | 59.3
S87C | 25.2
Q10D | 91.6
G21F | 60.1
A170I | -10.1
V70H | 33.5
H16I | -6.2
T73K | 66.6
I133P | 96.5
R46A | 81.1
R32Q | 76
N22S | 86.3

Block 2 — target: CCND2, cyclin fold, Cln2 fusion (human); method: yeast growth competition, sequencing; sample: yeast; notes: weak parent motif; relative to: not given; direction: higher = stronger binding
Parent: E2F8 docking peptide (human); FVPQRKLEVSTED; partner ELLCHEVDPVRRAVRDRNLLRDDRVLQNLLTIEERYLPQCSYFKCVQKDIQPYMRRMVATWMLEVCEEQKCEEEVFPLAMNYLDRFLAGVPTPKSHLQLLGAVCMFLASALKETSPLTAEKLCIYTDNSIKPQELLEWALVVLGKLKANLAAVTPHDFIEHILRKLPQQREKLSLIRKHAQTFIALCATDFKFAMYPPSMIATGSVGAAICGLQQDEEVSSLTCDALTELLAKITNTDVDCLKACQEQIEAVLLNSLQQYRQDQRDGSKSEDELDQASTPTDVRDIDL
Change | normalised enrichment score
FVPQKKLEVSTED [R5K] | 0.0865
FVPQRKLEVATED [S10A] | 0.137
FVPQRKLEASTED [V9A] | 0.0912
FVPQRKLEFSTED [V9F] | 0.0358
FVPQRKLAVSTED [E8A] | 0.151
FVPQRKLEVSAED [T11A] | 0.0786
FVPQRKLEVSTAD [E12A] | -0.049
FAPQRKLEVSTED [V2A] | 0.144

Block 3 — method: RNA Bind-n-Seq; molecule type: RNA; sample: in vitro; tested at: 365 nM; relative to: no-protein control; direction: higher = stronger binding
Target: RNA binding protein fox-1 homolog 2, RRM domain, GST-SBP tag (RBFOX2, Homo sapiens, UniProt O43251-10, residues 100-194)
Notes: natural RNA segment, single round, ends assumed
Constant ends, left off below: GGGAGUUCUACAGUCCGACGAUC … UGGAAUUCUCGGGUGCCAA
Residues (chain): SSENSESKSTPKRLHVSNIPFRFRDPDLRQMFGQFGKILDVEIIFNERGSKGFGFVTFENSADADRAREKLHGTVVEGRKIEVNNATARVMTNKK
Oligonucleotide | RBNS enrichment (R)
CCUUCCUUACUUUUCAGGCGCAUAGCUAUUAGGGGCGACUAAUAGGAAAAAGCUCGCAUUUUCAUCGUGCCUCCUGGAGUAGAGAAAUGGGAACGCCUCUCCCCUCCUUG | 0.573
GAGUCUAUGCCCUAUUGGCCAUCCUUAGUUUUCUUACGCAAAUUUAUACUGUUCAAGCAGCUCCAACGUCCAGUCUCAACACAGCGCGCCUUCGGCCAGGCAGCGAUCCA | 0.531
CCUUUAAUCCCAGCACUCGGGAGGCAGAGGCAAGCGGAUUUCUGAGUUUGAGGCCAACCUGGUCUACAAAGUGAGUUCCAGGACAGCCAGGGCUACACAGAGAAACUUCG | 0.318
UCCCUUUACCAAAAGGGUCAAUGGACCUUUCUUUGCACUGUGUGACUUAAUCAACUAUAAAAGCUUACAAUUAGUCUUCACAAUUAUGGGAUUGUUAUACUAACUGUGUG | 0.413
CCUGUGUUAUUGAAUGGACAGAGGCCUUGAAGGCCACUCUGCUCUCCCUCUUCUGCCUUCUUCUCCUCUCCCCUCCGAGAGGGGCAGCCAGGAACUGCAACGGACUCACA | 0.347
CCUGGGGCUUGGGUGCCACGUGCUGAGAUUGCAUAGUCAAAACAGCCAUUUUUGCCAACAAUAGCUUGUGGCUCCCCACAUUUUCCUACCCUGCACUCAAGGGCCAGACC | 0.432
AGAAUCAACAUCCCUAGAAAGAUCCCUAGAAAGAGCAAAGAAGGAAACACAUCUGUCAUUGUCUUGUGGACGUGGAAAGGAAGCUACUGUCCUCACACUCCUGGAUCACU | 0.313
GGAAGAAAGCAGAAAGUUCAACUUCCAAAGGGUUAGGACUCUCCACUCAAUGUCUUAGGUCAGGAGUUGUGUCUAGGCUGGAAGAGCCAAAGAAUAUUCCAUUUUCCUUU | 0.27

Block 4 — method: universal PBM; molecule type: double-stranded DNA, one strand shown; sample: in vitro; tested at: not given; direction: higher = stronger binding
Target: Sal-like protein 4, full length isoform B (SALL4, Homo sapiens, UniProt Q9UJQ4-2, residues 1-616)
Notes: 8-mer, flanks averaged, mean of replicates
Oligonucleotide | E-score
AGATCGTC | -0.154
CTGACAAA | 0.133
AGAGAGAA | -0.159
CCTTGCGA | -0.202
ACTTGGCA | 0.00762
GCGTAAAC | 0.0306
AACTCAAG | 0.043
CCCCACTC | -0.126
CACGGTAG | -0.133
TGACCTCA | -0.0783
GATATGGA | 0.348
GCCTAGAC | -0.201
AATCCCAA | 0.0825
CAAGTTCC | -0.111
ATGGGTTG | -0.0489
ACCTGAAC | -0.0991
GACCTCCC | -0.312
AACTTGTG | 0.0871
AACCAGGG | -0.108
CCGGGGCA | -0.371
AGTACGCC | -0.168
AGCACACG | -0.117
GATGTCGA | -0.00186
ACCGTCTA | -0.141
CGGACATA | 0.0554

Block 5 — method: protein binding microarray; molecule type: double-stranded DNA, one strand shown; sample: in vitro; tested at: not given; relative to: not given; direction: higher = stronger binding
Target: Histone acetyltransferase KAT6A, winged helix 2, GST fusion (KAT6A, Homo sapiens, UniProt Q92794, residues 85-181)
Notes: 8-mer, flanks averaged, mean of 2 arrays, mostly near background
Target sequence (chain): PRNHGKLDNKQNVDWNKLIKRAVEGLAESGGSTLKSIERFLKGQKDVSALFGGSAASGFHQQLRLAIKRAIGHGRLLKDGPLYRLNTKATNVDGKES
Oligonucleotide | E-score
CAGTCCGG | 0.0771
GAGAGGCA | 0.0157
CTTTGCTC | 0.0883
GGTGACTA | 0.0572
GAGGCATC | 0.0728
GGGGTATA | -0.212
AGCATCAT | -0.119
CGTTAGAA | 0.0744
GGTGGGAC | -0.143
CCGACAAG | 0.0929
GGGCACCA | 0.0352
CAGCGACG | -0.0147
AGCCCCTG | 0.119
AACCCAAT | -0.0932
ATAGTGCA | 0.0844
GGTTTCCA | -0.128
ATTCTACC | -0.0677
ATGGGAAG | -0.0301

Repeated from above (block 4):
Oligonucleotide | E-score
GACCTCCC | -0.312
AACTTGTG | 0.0871
AACCAGGG | -0.108
CCGGGGCA | -0.371
AGTACGCC | -0.168
AGCACACG | -0.117
GATGTCGA | -0.00186
